Published values pooled from the literature.
Lines come from different studies, so protocols differ. Several values in a cell are separate wells, animals, samples, runs or records. ± marks the error that the study gave.

SMILES	assay	system	setting	Cmax
N#CCC1CCN(c2nc(Nc3ccc(N4CCC(O)CC4)cc3)c3c(=O)[nH]ncc3n2)CC1		human, plasma	oral, 20 mg once daily, day 15	82.9 ng/mL
CCn1cc(C(=O)N2CCOCC2)c(=O)c2cc(NC3Cc4ccccc4C3)cnc21		human overall, fed, plasma	oral, 900 mg twice daily, day 7, tablet, arithmetic mean	6800 ng/mL
C=CCn1c(=O)c2cnc(Nc3ccc(N4CCN(C)CC4)cc3)nc2n1-c1cccc(C(C)(C)O)n1		human, plasma	oral, 125 mg twice daily, day -5 lead-in, geometric mean, monotherapy	676 nM
NCCCS(=O)(=O)O		human, plasma	oral, 256.5 mg once daily, day 14, capsule, fasted, dosed days 8-14	1040 ng/mL
COC[C@@H](c1ccc(C(F)(F)F)cc1)N1CCN(C2(C)CCN(C(=O)c3c(C)ncnc3C)CC2)C[C@@H]1C		human	oral, 5 mg once daily, steady state, population PK, together with: ritonavir	33 ng/mL
Cn1nc2c(=O)n(C3CC3)cnc2c1[C@](O)(c1cnc(C(F)(F)F)c(Cl)c1)C(F)(F)F		humanized SCID mice, blood	10 mg/kg once daily, 6 days, infected	4980 nM
Cc1ccc(C(=O)NC2CC2)cc1-n1ncc(C(=O)c2cccc(C#N)c2)c1N		healthy human	oral, 30 mg single, mean	327 ng/mL
CN[C@@H](C)C(=O)N[C@H]1CN(S(=O)(=O)c2cccc(S(=O)(=O)N3CC[C@H]4CC[C@@H](C(=O)NC(c5ccccc5)c5ccccc5)N4C(=O)[C@@H](NC(=O)[C@H](C)NC)C3)c2)CC[C@H]2CC[C@@H](C(=O)NC(c3ccccc3)c3ccccc3)N2C1=O	LC-MS/MS, noncompartmental	human, plasma	45 mg, cycle 1 day 1	1980 ± 1030 ng/mL
C[C@H](CCC(=O)NCCS(=O)(=O)O)[C@H]1CC[C@H]2[C@@H]3CC[C@@H]4C[C@H](O)CC[C@]4(C)[C@H]3C[C@H](O)[C@]12C		human, plasma	concentration not given, endogenous control diurnal	174 ± 39 nM
NC[C@@]1(CC(=O)O)[C@@H]2CC[C@H]3C[C@@H]2[C@@H]1C3		human, severe renal impairment, plasma	oral, 20 mg single dose, geometric mean	438 ng/mL
COc1ncnn2ccc(-c3cnc4nc(C)n(Cc5nnc([C@@H](C)F)o5)c4c3)c12	LC-MS/MS	human, plasma	oral, 70 mg capsule	714 ng/mL
NC1(C(=O)N[C@@H](CCO)c2ccc(Cl)cc2)CCN(c2nc[nH]c3nccc2-3)CC1		human, plasma	concentration not given, together with: enzalutamide	408 ng/mL and 225 ng/mL and 479 ng/mL
C[C@@H](Oc1cc(-c2cnn(C3CCNCC3)c2)cnc1N)c1c(Cl)ccc(F)c1Cl		human patients, plasma	oral, dose not given, cycle 2 day 1, mean, together with: avelumab	331 ng/mL
C=CC(=O)NC1CCN(c2ncc3ncnc(Nc4ccc(Oc5ccc6c(c5)ncn6C)c(C)c4)c3n2)CC1		human, male, plasma	oral, 240 mg, fasted, adjusted geometric mean	3700 nM
[H]/N=C(/N)c1ccc(NCc2nc3cc(C(=O)N(CCC(=O)O)c4ccccn4)ccc3n2C)cc1		healthy human subjects, plasma, total	oral, 150 mg, dabigatran etexilate alone, geometric mean	123 ng/mL
C[C@H](Oc1ccc(Br)cc1-c1ccon1)C(=O)O	LC-MS/MS, non-compartmental	human, plasma	600 mg once daily, day 1, multiple ascending dose, mean	27000 ng/mL
C[C@H](CCC(=O)O)[C@H]1CC[C@H]2[C@@H]3CC[C@@H]4C[C@H](O)CC[C@]4(C)[C@H]3C[C@H](O)[C@]12C		human, plasma	concentration not given, endogenous baseline diurnal	1010 ± 230 nM
CC(C)(Sc1ccncc1-c1ccc(C#N)c2ccccc12)C(=O)O		human, plasma	oral, 2.5 mg once daily, together with: febuxostat 20 mg	6.64 ng/mL
Cl.[2H]C([2H])([2H])CC(=O)c1cnc(NC(=O)C2CC2)cc1Nc1cccc(-c2ncn(C([2H])([2H])[2H])n2)c1OC	geometric mean	human	oral, 20 mg twice daily, day 7, fed, liquid, multiple dose	203 ng/mL
Cc1cc(C)c(CNC(=O)c2cc(Cl)c3c(c2C)O[C@@](C)([C@H]2CC[C@H](N(C)C)CC2)O3)c(=O)[nH]1	mean	healthy male humans, plasma	oral, 25 mg, day 1, alone, fluconazole group	113 ng/mL

SMILES	assay	system	setting	Cmax
CC1(COc2ccc3c(c2)ncn3-c2ccc3cccc(N4CCC(N)CC4)c3n2)COC1		human patients, recurrent/progressive HGG or DIPG, serum	oral, 220 mg/m^2, day 1, median	1620 nM
CC(C)(C)[C@@H]1NC(=O)O[C@@H]2CCC[C@H]2OC/C=C/C(F)(F)c2nc3ccccc3nc2O[C@@H]2C[C@@H](C(=O)N[C@]3(C(=O)NS(=O)(=O)C4(C)CC4)C[C@H]3C(F)F)N(C2)C1=O		healthy human subjects, plasma	oral, dose not given, together with: carbamazepine twice daily	354 ng/mL
C[C@@H](c1ccc2nccn2c1)n1nnc2ncc(-c3cnn(C)c3)nc21		human, plasma	oral, 300 mg, cycle 1 day 1, single dose	1980 ng/mL
CN(C)C(=O)c1cc2cnc(Nc3ccc(N4CCNCC4)cn3)nc2n1C1CCCC1		human, normal renal function, plasma	oral, 400 mg, single dose, geometric mean	234 ng/mL
Cc1cc(-c2nnc(N)nc2-c2ccc(F)cc2)cc(Cl)n1		human patients, plasma	oral, 75 mg nanosuspension once daily, multiple doses, arithmetic mean	374 ng/mL
Cc1cn(C(=O)c2c(-c3c(Cl)cc(Cl)cc3Cl)noc2C(C)(C)F)c2cccc(/C=C/C(=O)O)c12		human patients	1000 mg bid, cycle 1 day 1	27100 ng/mL
Cc1cc(-c2nccc3c2ccn3CC(=O)Nc2ccc(-c3cnccn3)cn2)ccn1		human, plasma	oral, 5 mg once daily, day 1, geometric mean	41.8 nM
Cn1ncnc1[C@H]1c2n[nH]c(=O)c3cc(F)cc(c23)N[C@@H]1c1ccc(F)cc1		human patients, plasma	oral, 400 µg/m2 twice daily day 1, day 5, dose level DL2, median, together with: temozolomide 20 mg/m2 daily days 2-6	10.1 ng/mL
CCS(=O)(=O)Nc1ccc(Oc2ccc(F)cc2F)c(-c2cn(C)c(=O)c3[nH]ccc23)c1		human, plasma	oral, 2 mg, cycle 1 day 8, geometric mean	19.9 ng/mL
CO[C@@H]1[C@H](OC(=O)N2CC(CCN3CCOCC3)C2)CC[C@]2(CO2)[C@H]1[C@@]1(C)O[C@@H]1CC=C(C)C		humans, plasma	subcutaneous, 0.6 mg twice weekly, first dose	1.87 ± 1.09 ng/mL
COC(=O)N[C@@H](C)CNc1nccc(-c2cn(C(C)C)nc2-c2cc(Cl)cc(NS(C)(=O)=O)c2F)n1		human patients, plasma	oral, 450 mg twice daily, day 14, steady state, median, together with: binimetinib 45 mg once daily	3330 ng/mL
NC(=O)c1[nH]cnc1N		human patients, plasma	IV infusion over 1 h, 1000 mg/m^2 DTIC, cycle 2 day 1, co-administered with co-drug	1240 ng/mL
COc1ccc2[nH]c([S@+]([O-])Cc3ncc(C)c(OC)c3C)nc2c1		human male, dried plasma spots	oral, 5 mg racemic omeprazole	87.1 nM
N[C@@H]1c2cccnc2[C@H](OC(=O)N2CCC(n3c(=O)[nH]c4ncccc43)CC2)CC[C@H]1c1cccc(F)c1F		human, plasma	oral, dose not given, single dose, mean, together with: rifampin	349 ng/mL
N[C@](CO)(CCc1ccc(Sc2cccc(OCc3ccccc3)c2)cc1Cl)COP(=O)(O)O		human fasted, whole blood	3 mg MOC, together with: cyclosporin 100 mg b.i.d.	1.81 ng/mL
CO[C@@H]1[C@H](N(C)C(=O)c2ccccc2)C[C@H]2O[C@]1(C)n1c3ccccc3c3c4c(c5c6ccccc6n2c5c31)C(=O)NC4		human patients, consolidation therapy, plasma	oral, 50 mg twice daily, day 21, prior micafungin, mean	1800 ng/mL
CCN(CC)CCNC(=O)c1c(C)[nH]c(/C=C2\C(=O)Nc3ccc(F)cc32)c1C		human, moderate hepatic impairment (Child-Pugh), plasma	single dose, geometric mean, total drug	22.7 ng/mL
CC(C)NC(=O)COc1cccc(-c2nc(Nc3ccc4[nH]ncc4c3)c3ccccc3n2)c1		human male, plasma	oral, 200 mg, day 5, alone, adjusted geometric mean	1710 ng/mL
CCCn1cc(C)c2c(=O)[nH]c(-c3cc(S(=O)(=O)N4CCN(CC)CC4)ccc3OCC)nc21		human, plasma	oral, 100 mg	64.8 ± 32.8 ng/mL
C#C[C@]1(CO)O[C@@H](n2cnc3c(N)nc(F)nc32)C[C@@H]1O		human, plasma	oral, 100 mg, single dose, geometric mean	3230 nM

SMILES	assay	system	setting	Cmax
CC1(C)CC[C@]2(NC(=O)C(C)(F)F)CC[C@]3(C)[C@H](C(=O)C=C4[C@@]5(C)C=C(C#N)C(=O)C(C)(C)[C@@H]5CC[C@]43C)[C@@H]2C1		human, plasma	oral, 150 mg, single dose alone, geometric mean	43 ng/mL
CN(C(=O)C(C)(C)c1cc(C(F)(F)F)cc(C(F)(F)F)c1)c1cnc(N2C[C@H]3COCCN3C[C@H]2CO)cc1-c1ccc(F)cc1[14CH3]	LC-MS/MS	human, plasma	oral, 120 mg	521 ng/mL
Cc1ncnc2c1ccn2[C@@H]1C[C@H](Oc2cc(C(F)F)c(F)c3c2CNCC3)[C@@H](O)[C@H]1O		human	oral, 0.5 mg twice daily	5.02 ng/mL
CN(CC#N)C(=O)C[C@H](Nc1nc2ccccc2[nH]1)c1cccc(C(F)(F)F)c1		human	intravenous infusion, 6 mg/kg, 1 mg/mL formulation	10300 ± 826 ng/mL
COc1cc2ncnc(Nc3ccc(F)c(Cl)c3)c2cc1NC(=O)/C=C/CN1CCCCC1		human, moderate hepatic impairment (Child-Pugh), plasma	single dose, geometric mean, total drug	10.1 ng/mL
O=C(c1nc2n(n1)[C@H](c1ccccc1)C[C@@H]2F)C1CC1	geometric LS mean	human, fasted, plasma	oral, 75 mg single dose	783 ng/mL
O=C(NCCN1CCCC1)c1cc(-c2ccc(CN3CCOCC3)cc2)nc2ccc(F)cc12		human, whole blood	oral, 1000 mg	1270 ng/mL
Cn1cncc1[C@@](N)(c1ccc(Cl)cc1)c1ccc2c(c1)c(-c1cccc(Cl)c1)cc(=O)n2C		healthy human subjects, plasma	oral, 100 mg, fasted	260 ng/mL
Cc1noc(C)c1-c1cc(C(O)(c2ccccn2)c2ccccn2)c2nc(C3CC3)[nH]c2c1		human patients, fasted, plasma	oral, 3 mg once daily, cycle 1 day 15, together with: enzalutamide once daily	84.4 ng/mL
CC(C)n1nc(-c2ccc3oc(N)nc3c2)c2c(N)ncnc21		human, plasma	oral, 3 mg once daily, cycle 1 day 1	42.8 ng/mL
CNC(=O)c1c(C)oc2cc(Oc3ncnc4cc(OC)c(OC)cc34)ccc12		human, normal hepatic function, plasma	oral, dose not given, single dose	120 ng/mL
Cc1cc(Nc2cc3ncccc3c(N[C@@H]3C[C@H]4CC[C@@H](C3)N4CCC#N)n2)n[nH]1		human, plasma	30 mg single dose, mean	1.03 ng/mL
C=CC(=O)N(C)CCOc1c(N)ncnc1-c1cc(F)cc(NC(=O)c2ccc(C3CC3)cc2F)c1C		human, whole blood	oral, 400 mg, single ascending dose, fasted	432 ng/mL
C[C@H](CCC(=O)O)[C@H]1CC[C@H]2[C@@H]3CC[C@@H]4C[C@H](OS(=O)(=O)O)CC[C@]4(C)[C@H]3CC[C@]12C		human, plasma	concentration not given, endogenous control diurnal	351 ± 42 nM
CCN1CCN(Cc2ccc(Nc3ncc(F)c(-c4cc(F)c5nc6n(c5c4)[C@H](C)CCC6)n3)nc2)CC1		human, plasma	50 mg single dose, mean	41.3 ng/mL
CC(=O)c1cc(C(=O)N[C@@H](C)Cn2ccc(-c3ccc(C#N)c(Cl)c3)n2)[nH]n1		human, fasted, plasma	oral, 300 mg darolutamide tablet, geometric mean	1260 ng/mL
COc1nnc2ccc(N3CCC(c4ccc(OCCN5CCN(C)C(=O)[C@H]5C)cc4)CC3)nn12		human, plasma	oral, 10 mg once daily, single dose, monotherapy	62.9 nM
CNC(=O)c1cc(Oc2ccc(NC(=O)Nc3ccc(Cl)c(C(F)(F)F)c3)cc2)ccn1		human, plasma	oral, 400 mg daily, median, dose level -1, together with: carboplatin AUC 3, gemcitabine 650 mg/m2	4700 ng/mL
Cc1nc(-c2ccc(OCC(C)C)c(C#N)c2)sc1C(=O)O		human, plasma	oral, 10 mg once daily, together with: verinurad 2.5 mg	274 ng/mL
C=CC(=O)N1CCC[C@@H](n2c(=O)n(-c3ccc(Oc4ccccc4)cc3)c3c(N)nccc32)C1		human, fasted, plasma	oral, 60 mg, geometric mean	9.31 ng/mL

Excerpt of the above:
SMILES	assay	system	setting	Cmax
NC(=O)c1[nH]cnc1N		human patients, plasma	IV infusion over 1 h, 1000 mg/m^2 DTIC, cycle 2 day 1, co-administered with co-drug	1240 ng/mL
COc1ccc2[nH]c([S@+]([O-])Cc3ncc(C)c(OC)c3C)nc2c1		human male, dried plasma spots	oral, 5 mg racemic omeprazole	87.1 nM
N[C@@H]1c2cccnc2[C@H](OC(=O)N2CCC(n3c(=O)[nH]c4ncccc43)CC2)CC[C@H]1c1cccc(F)c1F		human, plasma	oral, dose not given, single dose, mean, together with: rifampin	349 ng/mL
N[C@](CO)(CCc1ccc(Sc2cccc(OCc3ccccc3)c2)cc1Cl)COP(=O)(O)O		human fasted, whole blood	3 mg MOC, together with: cyclosporin 100 mg b.i.d.	1.81 ng/mL
